Experimental data from different studies.
lasR: Transcriptional activator protein LasR (lasR, Pseudomonas aeruginosa, UniProt P25084)
APP: Amyloid-beta precursor protein (APP, Homo sapiens, UniProt P05067)
UniProt P05067, sequence (whole entry, looked up): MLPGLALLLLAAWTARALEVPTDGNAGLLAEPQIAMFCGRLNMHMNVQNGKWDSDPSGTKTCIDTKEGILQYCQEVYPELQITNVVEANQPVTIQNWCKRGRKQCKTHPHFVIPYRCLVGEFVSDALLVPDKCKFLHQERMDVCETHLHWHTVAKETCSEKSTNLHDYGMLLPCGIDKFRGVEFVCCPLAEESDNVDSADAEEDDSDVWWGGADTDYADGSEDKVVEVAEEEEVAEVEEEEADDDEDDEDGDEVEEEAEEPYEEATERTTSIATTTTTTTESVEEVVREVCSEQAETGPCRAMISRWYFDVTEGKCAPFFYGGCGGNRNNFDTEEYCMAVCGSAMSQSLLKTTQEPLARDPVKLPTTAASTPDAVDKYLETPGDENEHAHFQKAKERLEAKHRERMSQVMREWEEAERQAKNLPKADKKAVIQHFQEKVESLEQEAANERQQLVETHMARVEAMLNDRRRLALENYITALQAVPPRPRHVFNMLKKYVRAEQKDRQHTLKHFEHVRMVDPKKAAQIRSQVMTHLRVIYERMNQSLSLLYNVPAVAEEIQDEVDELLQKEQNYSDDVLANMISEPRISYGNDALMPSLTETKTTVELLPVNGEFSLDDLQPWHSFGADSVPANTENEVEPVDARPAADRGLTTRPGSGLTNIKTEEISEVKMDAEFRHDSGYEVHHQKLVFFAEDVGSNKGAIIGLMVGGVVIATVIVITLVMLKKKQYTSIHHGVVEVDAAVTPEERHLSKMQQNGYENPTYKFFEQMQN
UniProt P17301, sequence (whole entry, looked up): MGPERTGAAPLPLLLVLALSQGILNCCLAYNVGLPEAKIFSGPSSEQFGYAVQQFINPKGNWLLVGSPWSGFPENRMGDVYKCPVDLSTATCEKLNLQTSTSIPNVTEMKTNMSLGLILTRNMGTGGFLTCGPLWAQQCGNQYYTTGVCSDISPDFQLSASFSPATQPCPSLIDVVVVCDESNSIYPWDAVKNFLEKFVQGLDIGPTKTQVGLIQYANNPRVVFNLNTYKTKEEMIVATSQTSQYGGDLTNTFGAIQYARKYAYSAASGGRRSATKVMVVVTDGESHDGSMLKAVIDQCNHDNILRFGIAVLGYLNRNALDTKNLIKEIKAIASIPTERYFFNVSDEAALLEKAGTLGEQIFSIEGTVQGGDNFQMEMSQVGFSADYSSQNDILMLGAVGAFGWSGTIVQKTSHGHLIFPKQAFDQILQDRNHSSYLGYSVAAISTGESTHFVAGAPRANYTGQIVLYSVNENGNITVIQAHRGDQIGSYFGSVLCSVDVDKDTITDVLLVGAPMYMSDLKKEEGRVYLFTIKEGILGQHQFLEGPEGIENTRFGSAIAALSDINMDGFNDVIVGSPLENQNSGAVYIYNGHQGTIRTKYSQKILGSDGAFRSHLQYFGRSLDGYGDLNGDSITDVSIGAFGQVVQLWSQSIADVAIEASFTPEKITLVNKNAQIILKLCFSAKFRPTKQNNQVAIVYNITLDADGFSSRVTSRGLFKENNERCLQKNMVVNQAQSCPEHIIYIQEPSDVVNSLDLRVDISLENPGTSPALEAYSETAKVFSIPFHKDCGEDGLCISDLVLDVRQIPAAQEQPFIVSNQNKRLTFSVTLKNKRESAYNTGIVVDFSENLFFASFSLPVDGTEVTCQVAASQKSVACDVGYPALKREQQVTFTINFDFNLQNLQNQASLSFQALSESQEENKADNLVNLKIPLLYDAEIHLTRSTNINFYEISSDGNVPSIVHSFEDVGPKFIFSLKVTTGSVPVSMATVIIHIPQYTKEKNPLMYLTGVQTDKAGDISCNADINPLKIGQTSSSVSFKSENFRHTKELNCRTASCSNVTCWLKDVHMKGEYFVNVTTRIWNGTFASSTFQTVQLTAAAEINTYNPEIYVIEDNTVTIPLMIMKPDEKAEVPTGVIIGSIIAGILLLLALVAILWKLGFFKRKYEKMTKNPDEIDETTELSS
UniProt P41227, sequence (whole entry, looked up): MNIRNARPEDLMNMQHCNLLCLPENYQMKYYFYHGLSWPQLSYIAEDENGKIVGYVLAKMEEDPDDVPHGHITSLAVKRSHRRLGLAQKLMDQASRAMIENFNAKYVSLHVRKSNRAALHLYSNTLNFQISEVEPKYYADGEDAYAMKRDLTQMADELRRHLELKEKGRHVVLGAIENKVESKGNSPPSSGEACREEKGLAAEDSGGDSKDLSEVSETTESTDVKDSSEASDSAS
UniProt P68400, sequence (whole entry, looked up): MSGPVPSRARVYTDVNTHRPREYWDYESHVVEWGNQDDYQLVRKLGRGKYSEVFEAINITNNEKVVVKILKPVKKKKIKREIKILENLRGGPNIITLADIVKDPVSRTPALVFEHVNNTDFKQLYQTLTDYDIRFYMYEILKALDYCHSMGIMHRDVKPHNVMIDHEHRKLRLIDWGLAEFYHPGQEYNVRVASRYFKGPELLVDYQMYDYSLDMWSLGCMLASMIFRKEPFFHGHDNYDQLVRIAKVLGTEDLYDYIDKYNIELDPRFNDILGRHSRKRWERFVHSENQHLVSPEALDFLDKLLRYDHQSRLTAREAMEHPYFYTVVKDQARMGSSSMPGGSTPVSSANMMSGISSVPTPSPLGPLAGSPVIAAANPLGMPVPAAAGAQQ
UniProt Q9Y243, sequence (whole entry, looked up): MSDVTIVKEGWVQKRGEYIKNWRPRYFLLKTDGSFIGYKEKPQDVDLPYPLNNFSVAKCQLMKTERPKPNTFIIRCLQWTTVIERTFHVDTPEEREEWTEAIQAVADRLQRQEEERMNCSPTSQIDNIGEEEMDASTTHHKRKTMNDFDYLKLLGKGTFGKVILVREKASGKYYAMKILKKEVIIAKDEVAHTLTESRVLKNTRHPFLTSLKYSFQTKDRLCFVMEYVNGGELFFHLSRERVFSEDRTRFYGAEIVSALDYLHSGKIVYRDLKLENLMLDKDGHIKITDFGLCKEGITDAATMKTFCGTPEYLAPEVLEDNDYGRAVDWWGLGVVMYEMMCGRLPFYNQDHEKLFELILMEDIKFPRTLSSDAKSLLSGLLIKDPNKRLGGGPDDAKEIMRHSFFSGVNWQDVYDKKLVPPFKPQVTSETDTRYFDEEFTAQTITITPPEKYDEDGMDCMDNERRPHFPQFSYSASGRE

O=C(Cn1cc(C2CCCC2)nn1)N[C@H]1CCOC1=O  inhibition (lasR; reporter gene, antagonist; 100 µM, with: OdDHL 10 nM): 70%
C[C@@H](O)[C@H](NC(=O)[C@H](CCCCN)NC(=O)[C@H](Cc1c[nH]c2ccccc12)NC(=O)CN)C(=O)N[C@@H](CCCNC(=N)N)C(=O)NC(C)(C)C(=O)N[C@@H](CCCNC(=N)N)C(=O)NC(C)(C)C(=O)N[C@H](C(=O)N[C@@H](CO)C(=O)N[C@@H](Cc1c[nH]cn1)C(=O)N[C@@H](Cc1ccc(O)cc1)C(=O)NCC(=O)O)[C@@H](C)O  inhibition (Integrin alpha-2, I domain (Homo sapiens, UniProt P17301); binding to collagen I; up to 1×100 nM; maximal): 30%
O=C(CC(=O)N[C@H]1CCOC1=O)Cc1ccccc1  inhibition (lasR; reporter gene, antagonist; 10 µM, with: 1 10 nM): 20%
CCCCCc1cn(-c2cccc(C(=O)N[C@H]3CCOC3=O)c2)nn1  inhibition (lasR; reporter gene, antagonist; 10 µM, with: OdDHL 10 nM): 18%
O=C(C[P+]([Au-][Cl])(c1ccccc1)c1ccccc1)[O][Ti+2][O]C(=O)C[P+]([Au-][Cl])(c1ccccc1)c1ccccc1.c1cc[cH-]c1.c1cc[cH-]c1  inhibition (AKT3 (Homo sapiens, UniProt Q9Y243); kinase activity; 10 µM): ≥ 50%
CCOC(=O)/C=C/c1c(-c2ccc(C)cc2)nc2ccc(/N=N/c3ccc([N+](=O)[O-])cc3)cc2c1-c1ccccc1  inhibition (APP; amyloid aggregation, inhibitor, fluorescence; 25 µM): ~75%
CC(=O)N[C@@H](CC(C)C)C(=O)N[C@@H](C)C(=O)N[C@@H](C)C(=O)NN(CCC(=O)N(C)C)Sc1ccccc1[N+](=O)[O-]  inhibition (Genome polyprotein, 3C protease (Human hepatitis A virus genotype IB, UniProt P08617, C1543S); enzyme activity; concentration not given): no inhibition
CC(=O)NC(Cc1ccc(Br)c(Cl)c1)C(=O)N[C@@H](C)C(=O)N1CCC[C@H]1C(=O)N1CCC[C@H]1C(=O)N[C@@H](CCC(=O)O)C(=O)N[C@@H](Cc1c[nH]cn1)C(=O)N[C@@H](CO)C(=O)N[C@H](C(=O)N[C@@H](C)C(N)=O)[C@@H](C)OP(=O)(O)O (some centres unmarked)  inhibition (CSNK2A1 (Homo sapiens, UniProt P68400); enzyme activity, inhibitor; 10 µM): 0.31%
CC(C)(COP(=O)(O)OP(=O)(O)OC[C@H]1O[C@@H](n2cnc3c(N)ncnc32)[C@H](O)[C@@H]1OP(=O)(O)O)[C@@H](O)C(=O)NCCC(=O)NCCSCCC(=O)N[C@@H](CO)C(=O)NCC(=O)N[C@@H](CCCNC(=N)N)C(=O)NCC(=O)N[C@@H](CCCCN)C(N)=O  inhibition (N-alpha-acetyltransferase 10 (Homo sapiens, UniProt P41227); enzyme activity, inhibitor; 1 µM): 10 to 40%
O=C(Cn1cc(CC2CCCCC2)nn1)N[C@H]1CCOC1=O  inhibition (lasR; reporter gene, antagonist; 100 µM, with: OdDHL 10 nM): 14%
CCCCc1cc(-c2ccccc2)c2cc(/N=N/c3ccc([N+](=O)[O-])cc3)ccc2n1  inhibition (APP; amyloid aggregation, inhibitor, fluorescence; 25 µM): 69.9%

A few entries again:
O=C(Cn1cc(C2CCCC2)nn1)N[C@H]1CCOC1=O  inhibition (lasR; reporter gene, antagonist; 100 µM, with: OdDHL 10 nM): 70%
